Measurements gathered from unrelated publications.
Every numbered part comes from another study and shows a few of its results, in no order. Changes are numbered by the printed parent chain.
UniProt Q9Y385, sequence (whole entry, looked up): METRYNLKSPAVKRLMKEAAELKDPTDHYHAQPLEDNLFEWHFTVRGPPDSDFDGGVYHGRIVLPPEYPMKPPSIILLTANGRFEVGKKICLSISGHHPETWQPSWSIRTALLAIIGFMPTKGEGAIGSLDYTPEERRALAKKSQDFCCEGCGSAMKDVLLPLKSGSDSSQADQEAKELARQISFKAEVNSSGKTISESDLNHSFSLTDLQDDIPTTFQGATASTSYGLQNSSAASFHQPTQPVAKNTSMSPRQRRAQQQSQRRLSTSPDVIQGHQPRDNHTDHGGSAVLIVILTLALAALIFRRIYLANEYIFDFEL
UniProt Q9NPD8, sequence (whole entry, looked up): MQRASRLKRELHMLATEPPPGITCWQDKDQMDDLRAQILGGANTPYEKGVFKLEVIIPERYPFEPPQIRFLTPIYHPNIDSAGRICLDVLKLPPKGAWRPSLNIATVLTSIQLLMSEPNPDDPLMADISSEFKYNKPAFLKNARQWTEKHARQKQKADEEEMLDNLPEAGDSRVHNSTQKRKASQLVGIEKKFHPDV
UniProt Q16763, sequence (whole entry, looked up): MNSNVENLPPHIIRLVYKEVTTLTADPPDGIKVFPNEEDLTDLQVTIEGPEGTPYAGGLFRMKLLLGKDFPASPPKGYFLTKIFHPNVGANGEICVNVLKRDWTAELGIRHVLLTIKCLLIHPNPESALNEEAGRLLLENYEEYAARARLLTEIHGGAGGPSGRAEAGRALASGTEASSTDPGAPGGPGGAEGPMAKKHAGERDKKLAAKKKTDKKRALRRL
UniProt Q712K3, sequence (whole entry, looked up): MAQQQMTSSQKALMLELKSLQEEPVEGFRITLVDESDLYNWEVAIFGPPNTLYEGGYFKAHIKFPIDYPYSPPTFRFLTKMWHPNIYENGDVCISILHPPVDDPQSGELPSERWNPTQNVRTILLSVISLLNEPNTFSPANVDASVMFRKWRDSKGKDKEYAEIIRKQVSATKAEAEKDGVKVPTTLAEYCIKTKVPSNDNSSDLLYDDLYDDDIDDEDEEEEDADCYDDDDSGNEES
UniProt Q9Y2X8, sequence (whole entry, looked up): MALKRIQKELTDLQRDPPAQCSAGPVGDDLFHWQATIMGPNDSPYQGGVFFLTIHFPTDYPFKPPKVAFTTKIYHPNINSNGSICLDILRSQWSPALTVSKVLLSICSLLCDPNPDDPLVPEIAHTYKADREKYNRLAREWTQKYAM
UniProt Q7Z7E8, sequence (whole entry, looked up): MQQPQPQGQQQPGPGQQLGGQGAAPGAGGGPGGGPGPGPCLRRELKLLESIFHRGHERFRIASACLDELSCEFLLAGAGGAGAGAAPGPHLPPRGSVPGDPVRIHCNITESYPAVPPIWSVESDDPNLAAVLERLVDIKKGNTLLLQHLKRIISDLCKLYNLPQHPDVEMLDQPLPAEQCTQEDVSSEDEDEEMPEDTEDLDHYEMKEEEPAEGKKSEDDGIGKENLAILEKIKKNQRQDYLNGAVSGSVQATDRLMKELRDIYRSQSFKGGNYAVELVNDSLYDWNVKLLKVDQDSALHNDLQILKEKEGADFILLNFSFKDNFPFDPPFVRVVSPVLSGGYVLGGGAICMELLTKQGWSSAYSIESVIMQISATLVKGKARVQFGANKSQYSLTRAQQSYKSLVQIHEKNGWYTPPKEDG
UniProt P63146, sequence (whole entry, looked up): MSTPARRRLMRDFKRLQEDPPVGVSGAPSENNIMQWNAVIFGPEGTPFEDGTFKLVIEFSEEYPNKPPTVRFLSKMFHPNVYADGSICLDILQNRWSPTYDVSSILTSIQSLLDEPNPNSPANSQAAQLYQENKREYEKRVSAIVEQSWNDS
UniProt O00762, sequence (whole entry, looked up): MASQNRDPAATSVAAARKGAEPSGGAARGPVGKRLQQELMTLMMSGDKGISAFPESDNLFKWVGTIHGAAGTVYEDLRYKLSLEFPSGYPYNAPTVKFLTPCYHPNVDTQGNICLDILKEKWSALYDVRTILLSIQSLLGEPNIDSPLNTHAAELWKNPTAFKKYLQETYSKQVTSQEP
UniProt P62837, sequence (whole entry, looked up): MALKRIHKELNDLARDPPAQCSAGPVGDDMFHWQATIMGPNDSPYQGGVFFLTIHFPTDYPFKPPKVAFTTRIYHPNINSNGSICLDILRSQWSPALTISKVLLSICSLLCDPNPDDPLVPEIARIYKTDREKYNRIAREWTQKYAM
UniProt Q8N2K1, sequence (whole entry, looked up): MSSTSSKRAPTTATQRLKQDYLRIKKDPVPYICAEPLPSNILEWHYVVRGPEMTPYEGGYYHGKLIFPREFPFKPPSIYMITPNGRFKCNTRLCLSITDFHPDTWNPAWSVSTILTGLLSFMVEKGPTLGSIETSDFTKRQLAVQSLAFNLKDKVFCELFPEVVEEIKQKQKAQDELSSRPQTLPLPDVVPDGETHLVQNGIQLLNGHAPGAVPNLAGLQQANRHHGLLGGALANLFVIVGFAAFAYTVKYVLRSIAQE

Series 1 — technique: protein binding microarray; molecule type: double-stranded DNA, one strand shown; medium: in vitro; tested at: not given; relative to: not given; reading: higher = stronger binding
Target: Histone acetyltransferase KAT6A, winged helix 2, GST fusion (KAT6A, Homo sapiens, UniProt Q92794, residues 85-181)
Setting: 8-mer, flanks averaged, mean of 2 arrays, mostly near background
Residues (chain): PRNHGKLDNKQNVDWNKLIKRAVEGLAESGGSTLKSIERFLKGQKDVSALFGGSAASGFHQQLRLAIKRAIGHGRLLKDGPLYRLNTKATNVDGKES
Sequence	E-score
AAGTCACC	-0.0997
AAACGTCT	-0.0672
ACGTGGCC	-0.185
AAACCAAT	0.031
ATTAATAA	0.0844
CGCGGGCC	0.204
ATCGTGGG	0.0438
TGTTGCAA	0.00895
CATAGTTA	-0.107
ACCCAATG	-0.195
CGGACTGC	0.136
CGGAGGAC	0.13
CTTCTGGA	0.0783
ATACTAAA	0.0405
CCTCTCTA	-0.107
AACTACTC	0.00653
GGATATGA	0.00348
GACGTCCC	-0.078
CGGACTCC	0.152
ACGGTAGA	-0.154
ATGCGTGA	0.132
ACACCGGC	0.236
TACGCGAA	-0.0344
GCTTAAAC	-0.0762
GCGATTTA	-0.0586

Series 2 — Molecule: B1 (RNF181 RING domain); technique: yeast two-hybrid; medium: yeast; setting: mostly zero background; relative to: not given; reading: higher = stronger interaction
B1: RNF181 RING domain (UniProt Q9P0P0); chain VIRGSQAELKCPVCLLEFEEEETAIEMPCHHLFHSSCILPWLSKTNSCPLCRYELPTDDDTY
target	lacZ reporter activity
UBE2J1 UBC core domain (UniProt Q9Y385)	0
UBE2J2 UBC core domain (UniProt Q8N2K1)	11800
UBE2D4 UBC core domain (UniProt Q9Y2X8)	12100
UBE2Q1 UBC core domain (UniProt Q7Z7E8)	0
UBE2R2 UBC core domain (UniProt Q712K3)	0
UBE2D2 UBC core domain (UniProt P62837)	9870
BIRC6 UBC core domain (UniProt Q9NR09)	0
UBE2S UBC core domain (UniProt Q16763)	0
UBE2C UBC core domain (UniProt O00762)	0
UBE2B UBC core domain (UniProt P63146)	0
UBE2T UBC core domain (UniProt Q9NPD8)	0

Series 3 — technique: RNA Bind-n-Seq; molecule type: RNA; medium: in vitro; tested at: 200 nM; setting: whole 134-nt RNA, ends assumed; added: 150 mM LiCl; relative to: input library; reading: higher = stronger binding; library: 7-deaza-guanosine replaces G
Target: Fragile X messenger ribonucleoprotein 1, C-terminal low-complexity region (Fmr1, Mus musculus, UniProt P35922)
Shared flanks, not repeated: GGGAGUUCUACAGUCCGACGAUC … UGGAAUUCUCGGGUGUCAAGG
Sequence	log2 enrichment
GGGUCUGUUGCAAAUAAAUUCUAUGUUCACAAUGAUAUCUUCAGAUACCAAGAUGAGGUCUUUGGUGGGUUUGUCACUGAGCCUCAGGAG	-0.807
CCUGUGCUACACAUCGUAUGUACCGAAUCGGGGAAAAAGGGGAAAAAGGGGUUUUUGGGGAAAGUAUUAUGUUACGCCGUUCGGAUCUGC	0.111
UGGGAGGUGGAUUUUGUAUAUUUUUUUAGCUCAUUUCCAGGGGUGGGAAUUUUUUUUUAAUAUGUGUCAUGAAUAAAGUUGUUUUUGAAA	0.376
UUCUCCUGCCCCGAAGCUCGCUGUGCGUGUGCGUGUGUGUGUCCCUCCGCCAACGCCGCCACCUCAGCCCGGCAAAUGAACUCCGUCCGA	1.65
CUCAAGUCCUGUGCUACACAUCGUAUGUACCGAAUCGGUUGGUUGGGGUUGGGGAAAGUAUUAUGUUACGCCGUUCGGAUCUGCACUUCC	-1.32
CCUCAAGUCCUGUGCUACACAUCGUAUGUACCGAAUCGGUUUUUGGAGGUGGAAAGUAUUAUGUUACGCCGUUCGGAUCUGCACUUCCAG	-0.195
CUCAAGUCCUGUGCUACACAUCGUAUGUACCGAAUCGGUUUGGGUUUGGUUUGGAAAGUAUUAUGUUACGCCGUUCGGAUCUGCACUUCC	-0.185
CAAGUCCUGUGCUACACAUCGUAUGUACCGAAUCGGAAAAAGGAAAAAAAGGAGGAAAGUAUUAUGUUACGCCGUUCGGAUCUGCACUUC	-0.882

Series 4 — target: CCND3, cyclin fold, Cln2 fusion (human); technique: yeast growth competition, sequencing; medium: yeast; setting: weak parent motif; relative to: not given; reading: higher = stronger binding
Parent: E2F1 docking peptide (human); PPVKRRLDFETDH
Variant	normalised enrichment score
D8W	0.294
L7Q	0.147
D8G	-0.15
D8P	0.39
D12E	0.34
L7A	0.353
F9G	0.0224
P2K	0.421
E10H	-0.0971
V3G	0.375
D12F	0.295
P2W	-0.104
F9Y	0.0396
V3Q	-0.0134
R5Q	0.0151
D12P	0.429
V3R	0.115
R6P	-0.0424

Series 5 — technique: RNAcompete; molecule type: RNA; medium: in vitro; tested at: 20 nM; setting: 7-mer, probes averaged, single round; relative to: mean of 7-mers; reading: higher = stronger binding
Target: PABPC1L2, full length, GST fusion (mouse, UniProt A0ABA7IW68)
Target sequence (chain): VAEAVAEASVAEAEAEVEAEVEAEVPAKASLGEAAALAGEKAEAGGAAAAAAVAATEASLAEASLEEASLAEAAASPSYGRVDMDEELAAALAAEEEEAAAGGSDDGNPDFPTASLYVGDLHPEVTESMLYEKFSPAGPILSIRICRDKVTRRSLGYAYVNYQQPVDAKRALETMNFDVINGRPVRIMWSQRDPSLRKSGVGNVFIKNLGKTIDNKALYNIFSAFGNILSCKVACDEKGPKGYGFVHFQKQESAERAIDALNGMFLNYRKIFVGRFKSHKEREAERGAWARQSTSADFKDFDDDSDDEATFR
Sequence	7-mer Z-score
AGCUGCC	-0.121
UUCAGGG	-0.0319
ACAUCUA	-0.0391
CCCAUAU	-0.398
CCAGAGU	-0.195
UCCUCAA	-0.311
CCCCGCU	-0.525
UUUUCAU	-0.431
GGCUUAU	-0.0319
CACUGCU	-0.258
GUAAACG	-0.012
ACCCCCG	-0.539
ACCCCAA	-0.132
CGUCUCG	-0.32
UCUAAGC	-0.316
AAGAUUG	0.374
GGGCUCU	0.0986
CUGAGGG	0.102
CCCCGGA	-0.356
CGCAAUC	-0.0536
AUGAUUU	-0.0935
CUGAAUG	-0.231
UUAGACG	-0.119
GAGCUAG	-0.0935
GGACUAC	0.254

A few entries again (series 4):
Variant	normalised enrichment score
D8P	0.39
D12E	0.34
L7A	0.353
F9G	0.0224
P2K	0.421
E10H	-0.0971
V3G	0.375
D12F	0.295
P2W	-0.104
F9Y	0.0396
